Measured values from different studies.
Numbered parts are unrelated; each lists some results of a single study. Changes are numbered by the printed parent chain.

Series 1 — target: CCNF, cyclin fold, Cln2 fusion (human); method: yeast growth competition, sequencing; sample: yeast; notes: strong parent motif; baseline: not given; direction: higher = stronger binding
Starting sequence: SAMHD1 docking peptide (human); ASKSRVQLFKDDP
Change | normalised enrichment score
ASKSREQLFKDDP [V6E] | 0.0208
ASKSRVSLFKDDP [Q7S] | 0.313
ASKSRVQNFKDDP [L8N] | 0.366
ASKSRVQLFKDNP [D12N] | 0.975
ASKSRVQVFKDDP [L8V] | 0.0729
ASKSRVVLFKDDP [Q7V] | 0.383
ASKSRLQLFKDDP [V6L] | 0.692
ASKSRVQLFKDRP [D12R] | 0.757
ASKSRFQLFKDDP [V6F] | 0.372
AHKSRVQLFKDDP [S2H] | 1.98
ASKSRVQLFKEDP [D11E] | 1.4
ASKSRVALFKDDP [Q7A] | 0.262
ASKDRVQLFKDDP [S4D] | 0.114
AQKSRVQLFKDDP [S2Q] | 1.5
AIKSRVQLFKDDP [S2I] | 2.12
ASKSRIQLFKDDP [V6I] | 0.478
ASPSRVQLFKDDP [K3P] | 0.523
ACKSRVQLFKDDP [S2C] | 2.85
ASRSRVQLFKDDP [K3R] | 2.08
AMKSRVQLFKDDP [S2M] | 1.69
ASKSRVQLFYDDP [K10Y] | -0.00419

Series 2 — method: DHFR PCA, deep sequencing; sample: yeast; with: (+)-ABA 710 µM; baseline: wild-type fitted maximum; direction: higher = stronger binding
Target: ABI1, truncated, D143A, DHFR fusion (Arabidopsis thaliana)
Notes: methotrexate growth selection, single substitutions
Starting sequence: PYL1, truncated, DHFR fusion (Arabidopsis thaliana); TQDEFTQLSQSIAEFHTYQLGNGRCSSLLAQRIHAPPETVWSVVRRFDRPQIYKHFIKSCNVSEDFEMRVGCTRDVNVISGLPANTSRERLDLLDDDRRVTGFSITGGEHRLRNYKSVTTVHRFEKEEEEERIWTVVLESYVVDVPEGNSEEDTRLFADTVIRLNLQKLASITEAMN; partner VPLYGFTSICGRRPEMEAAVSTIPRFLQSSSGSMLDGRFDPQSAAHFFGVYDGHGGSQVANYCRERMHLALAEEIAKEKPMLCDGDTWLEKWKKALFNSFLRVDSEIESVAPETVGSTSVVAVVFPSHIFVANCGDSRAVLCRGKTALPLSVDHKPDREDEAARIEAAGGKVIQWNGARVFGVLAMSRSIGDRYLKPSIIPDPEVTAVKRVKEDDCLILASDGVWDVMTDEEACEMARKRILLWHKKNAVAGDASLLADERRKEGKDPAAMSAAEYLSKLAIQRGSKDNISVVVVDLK
Change | relative binding score [%]
D144F | 57.9
S11D | 104
C60S | 88.1
G71V | 2.09
G81W | -3.74
Q2I | 100
N177C | 121
Y53A | 72.5
D65C | 97.2
T73W | 99.9
P36E | 105
A175M | 95
F103K | -28.1
T119S | 89.9
S27Q | 99.7
V43K | 85.1
S9F | 94
S171K | 101
G107R | 82.6
R46G | 95.1
G23L | 91
V118L | 95.1
R163C | 78.4
S140R | 25.2
R99N | 104

Series 3 — method: RNA Bind-n-Seq; form: RNA; sample: in vitro; tested at: 365 nM; baseline: no-protein control; direction: higher = stronger binding
Target: RNA binding protein fox-1 homolog 2, RRM domain, GST-SBP tag (RBFOX2, Homo sapiens, UniProt O43251-10, residues 100-194)
Notes: natural RNA segment, single round, ends assumed
Shared flanks, not repeated: GGGAGUUCUACAGUCCGACGAUC … UGGAAUUCUCGGGUGCCAA
Construct (chain): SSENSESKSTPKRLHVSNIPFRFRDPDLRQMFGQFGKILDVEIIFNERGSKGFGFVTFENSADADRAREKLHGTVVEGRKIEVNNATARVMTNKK
Oligonucleotide | RBNS enrichment (R)
UUGGGGCCUAGGAACCGAGGGCACACGGGACUCUAGCCUCAUCCCCAGGACCCCCUUGGCUCAGAGUGUGGUGCUAGAAACUGGCCCCCAGCCCAGCCCCAGUACUGCCA | 0.288
UACCCUUGGAUCAGCCAAGCCAGACUUGGAGCUUUGACAAGGAACGUUCCCGGGAAACGACCAAACGAACCGAACACAUAUAAACAAGGCACAGAGAAGUGGCCACAGCC | 0.372
AGUGCGUGCUUGGCAGUUCCAUGUUACCUACCACCCAUUAGUUAGCAAGCGAACUUAGUGCCACAGGUGUUCAUUUACUCGGGAAAUGGUUUUGCUUUUUGUAUUGUCUA | 0.71
ACUGUUACCUUGUGUUCCACCUUGAAUCUCACAGCGUCCCCUUCUGCAAUGUAGGUCUCCUUCCUGUGCAGUGUAACAUGUAUCCCGUUGCCUGUUGUUCGGUUGUGUGA | 1.15
CAUGUUUCUGUUUUGUGACACAGUGGAUGGAAAGGUUUGUCCUCUUCCUACUAUAGCAUGAACCCUACAUACGCCACCCUCAGUCUCUCUUGCUUCCUCUUUAACCCGGA | 3.9
GGGGCUAUGUGGCUACGGCUACACAAAAGCCUGUGCAGGUUAGAAGACGACUGUGGUGUGCAGUGGUGCUCUGGGAGUGGAGACUUCCUCUGUUCUCAGAGACUCACCCC | 0.236
GCCCAAUAAUCCUCUCUUUUCUGCCAAGUCCUCAACCCAGAAAUGUAGGCUUCUGUGCACCACACGGCACAGCCCACUGAUUGCUGCCACCGGCUCUGUCUUGGUCAGUG | 0.643
GAAAGCUGCCGUCUCUUUGGCAGUCUGAUGCAGAGCCUGCACUCUGGCACUCGCUGAAGAAUCUGGAAGGUUGCGGUUUGCUCUUCCAGUGUUCGGGGGCCUCUGGCUGC | 0.214
GUGGUCUGCUCAUCUCUUUAGGGAACUUUGAGGUGGGCGGUGGCAUAUGGAGGGGUGUCAGGUUCUAUGUGACCCAGUAAUGAGAAGAGCUUGAAGGUGAGGCCUGAGGG | 0.869
GAGUGUGUGUGUAUGUGUGUGUGUAUGUAAGUCCCCUGUGUGGGUCCAGUUUCAAGGCAUGUACAAUAAGCAUGGAGUCGUAUUGAUGAGGACUUACCUCCUGAAGAUAU | 0.921
CCCACUGCAGGCCCCGCUUGUCCAGCGCCUAGUGGGGUCUCCCUCUCCUGCCUACUCACGAUAAAUAAUCGGCCCACAGCUCCCACCCCACCCCCUUCAGUGCCCACCAA | 1.62
GAGCGUUCGCGCUCUGGGUCACUGGAUUGUUUCGUGUUUAUGUGUGAUUGUACCAAGGAACUUAGCCUCAUGUAGCAUGUACAGGGUUGUAAUGGUGACCCAGCAGCGAG | 8.82

Series 4 — method: protein-binding microarray; form: double-stranded DNA, one strand shown; sample: in vitro; tested at: 0.8 µM; notes: whole 60-bp probe, no competitor; direction: higher = stronger binding; shared flanks, not repeated: … GTCTTGATTCGCTTGACGCTGCTG
Target: Centromere-binding protein 1, full length, N-terminal tag (CBF1, Saccharomyces cerevisiae, UniProt P17106, residues 1-351)
Chain of UniProt P17106 (whole entry, looked up): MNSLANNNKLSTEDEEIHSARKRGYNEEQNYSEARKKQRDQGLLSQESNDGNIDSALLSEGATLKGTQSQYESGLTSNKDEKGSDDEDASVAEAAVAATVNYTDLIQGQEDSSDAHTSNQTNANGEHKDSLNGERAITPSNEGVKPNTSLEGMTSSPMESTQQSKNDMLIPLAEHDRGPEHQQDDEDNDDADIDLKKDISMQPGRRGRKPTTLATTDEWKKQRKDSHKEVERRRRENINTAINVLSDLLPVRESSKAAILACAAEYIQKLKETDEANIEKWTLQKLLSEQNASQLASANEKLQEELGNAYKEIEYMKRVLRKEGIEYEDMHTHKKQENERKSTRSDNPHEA
Oligonucleotide | fluorescence intensity [a.u.]
GAATCTGGGAACTTGAACGTGGAATTTTTCATTTAG | 523
CTAAATGCACGTGATATGCACGTGGGAGCTGGGTTC | 20600
CTACTAAAATGTCCAGACATGATCTTAAGCGGATTC | 508
CCTAACTACTATACTGATGCTATATAGCTTCGTACA | 492
CTATACTCACTTGCTCACGCAATAATTTGATTTTTC | 535
CTAGTTGACTTACCACATGTGCAGCCGCCTTTTTTC | 706
CTAAAAAAGTAAAGTAACGTGAGAATGTCTGATTTC | 653
CTAGTGTGGCTGCACCGCACCACCTTGCAGGTCTTC | 473
GAATTGTACATATACCTCACCTGAGTTTTGCTTTAG | 507
TGTACGAAGCTATTATTACACGTTATAGTAGTTAGG | 556
CTACGAAATTGAGTGCACATGCTCGCAAGATAATTC | 996
GAAGGAGCCCAGGCCTCCGTGACTCATAAAGGGTAG | 596
CTATATAGTAGTACTCACGTTACTAGTATATCATTC | 1170
CTAGTTATCACTTAATACACCACCTGGTGTCCATTC | 686
CTAACTAGGTATTTACACGTGAAAGTATTGAATTTC | 2230
GAATCTCGTCAAGATCAGCAGAAACACACACACTAG | 549
CTAGTTCTCTTTCAGGAGGTGGTGTTAAAAAAATTC | 546
CTATCACCTATATAACACGTTGGTTTCTCATTTTTC | 517
CTATGCAGGACTGGGCACGTTTTACAATACGTATTC | 657
GAAAATGACTAGAATGGGCACGTGATCATAAAATAG | 29000
GAATAGGTTGTCGTCAATCACATGTAAATATCATAG | 1500
GAATAATACGCAGGTGACGTTTGATAATGTGAATAG | 1280
GAAAATTCATAAACAATCACCAGTATATTTATTTAG | 529
CTACATCGATGTATTCTGATGCAGCCAAAATTGTTC | 503
CTACCAATATATACTCACATGTAACAACTTATTTTC | 845

Single results of other studies
Substance | target | test | system | conditions | scale | quantity | value
PhoQ, residues 284 288 289 292 302 303 GLASVI | PhoP, residues 12 14 15 18 19 LYFRQ (Escherichia coli, UniProt P23836) | Sort-seq, item: YFP reporter | E. coli | PhoQ-PhoP variant library, with: 10 µM Mg2+ | baseline: high Mg2+ state, higher = stronger signaling | fold induction | 4.66
